Results of several laboratories.
A part holds a random share of what one study measured.

Series 1
Target: Histone acetyltransferase KAT6A, winged helix 2, GST fusion (KAT6A, Homo sapiens, UniProt Q92794, residues 85-181)
Technique: protein binding microarray
Form: double-stranded DNA, one strand shown
Sample: in vitro
Concentration: not given
Setting: 8-mer, flanks averaged, mean of 2 arrays, mostly near background
Reference: not given
Direction: higher = stronger binding
Residues (chain): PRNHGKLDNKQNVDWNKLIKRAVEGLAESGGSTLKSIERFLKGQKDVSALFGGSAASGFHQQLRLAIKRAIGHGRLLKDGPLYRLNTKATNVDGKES
For `ACGTAGGG`, the E-score was -0.277.
With `CGCATTTA` the E-score was 0.0829.
`GTTTTGCA` has an E-score of -0.0196.
`ATGCCGTG` has an E-score of 0.0819.
`GAACAGCC` gave an E-score of -0.0224.
`ACCACTTA` gave an E-score of -0.0702.
The E-score of `GTATAAAA` is reported as 0.211.
With `CGTAACTC` the E-score was -0.055.
`AGGCCGGA` has an E-score of 0.142.
For `ATGTTAAA`, the E-score was -0.0178.
With `ATCCAACA` the E-score was 0.0717.
With `CATATTGC` the E-score was -0.211.
The E-score of `AGACCCCG` is reported as 0.108.
`TCCTGCGA` has an E-score of 0.095.
The E-score of `ACCCCTCG` is reported as 0.0265.
With `CAGCTAGG` the E-score was -0.045.
`TATCAAGA` gave an E-score of -0.0542.
For `AACGGGGC`, the E-score was 0.00423.
`ATTTCAAC` gave an E-score of -0.0781.
The E-score of `GTAGCCTA` is reported as -0.118.
`AATCCCAA` gave an E-score of -0.0981.
`CGTGAAGC` has an E-score of -0.102.
`AGAGTCTC` has an E-score of -0.203.
With `AAAATAGA` the E-score was 0.0415.
The E-score of `CCAACTCA` is reported as 0.0799.

Series 2
Target: Fragile X messenger ribonucleoprotein 1, C-terminal low-complexity region (Fmr1, Mus musculus, UniProt P35922)
Technique: RNA Bind-n-Seq
Form: RNA
Sample: in vitro
Concentration: 200 nM
Setting: whole 134-nt RNA, ends assumed
With: 150 mM KCl
Reference: input library
Direction: higher = stronger binding
All sequences stand within: GGGAGUUCUACAGUCCGACGAUC … UGGAAUUCUCGGGUGUCAAGG
`UCAAGUCCUGUGCUACACAUCGUAUGUACCGAAUCGGAGGUUUUUGGUUUUUGGAAAGUAUUAUGUUACGCCGUUCGGAUCUGCACUUCC` has a log2 enrichment of -0.789.
The log2 enrichment of `CUGUGCUACACAUCGUAUGUACCGAAUCGGGGCCCCCCCGGCCCCCCCGGGCCCCCCCGGGGAAAGUAUUAUGUUACGCCGUUCGGAUCU` is reported as -1.01.
With `AGUCCUGUGCUACACAUCGUAUGUACCGAAUCGGGUUUUUUUGGGUUUGGGUUUGGGAAAGUAUUAUGUUACGCCGUUCGGAUCUGCACU` the log2 enrichment was 0.495.
With `GCAGGAAGUAAAAACAAAUGGAAAUGCUUCGGAUAGUGGCAGGGGUGGGGGUUGCUAAGGAAAGGGUGGGAUGCGAGUGGGUAAAGAGUU` the log2 enrichment was 0.417.
With `CAAGUCCUGUGCUACACAUCGUAUGUACCGAAUCGGGGAAAGGGAAAGGAAAGGGAAAGUAUUAUGUUACGCCGUUCGGAUCUGCACUUC` the log2 enrichment was 0.0901.
For `UGGGAGGGGGAUUUUGUUUAUUUUUUUAGCUCAUUUCCAGGGGUGGGAAUUUUUUUUUAAUAUGUGUCAUGAAUAAAGUUGUUUUUGAAA`, the log2 enrichment was 0.329.
With `UAACUUUAGAGGAGGAUCUGAUGGAUAGGGCAGUGGACGUGGAUUUGGGGAUGGCUAUAAUGGGUAUGGAGGAGGACCUGGAGGUGGCAA` the log2 enrichment was 0.486.
For `CCUCAAGUCCUGUGCUACACAUCGUAUGUACCGAAUCGGGAGGGGAGGAGGGAAAGUAUUAUGUUACGCCGUUCGGAUCUGCACUUCCAG`, the log2 enrichment was 0.946.
`AGUCCUGUGCUACACAUCGUAUGUACCGAAUCGGGUUUUUUUGGGAAAAAGGGAGGGAAAGUAUUAUGUUACGCCGUUCGGAUCUGCACU` has a log2 enrichment of 0.479.
For `CUCAAGUCCUGUGCUACACAUCGUAUGUACCGAAUCGGAAAAAGGAGGUUUGGAAAGUAUUAUGUUACGCCGUUCGGAUCUGCACUUCCA`, the log2 enrichment was -0.475.
`UCAAGUCCUGUGCUACACAUCGUAUGUACCGAAUCGGUUUGGGUUUGGGUUUGGAAAGUAUUAUGUUACGCCGUUCGGAUCUGCACUUCC` has a log2 enrichment of -0.332.
`UGGGAGGUGGAUUUUGUUUAUUUUUUUAGCUCAUUUCCAGGGGUGGGAAUUUUUUUUUAAUAUGUGUCAUGAAUAAAGUUGCUUUUGAAA` gave a log2 enrichment of 0.188.
With `AAGUCCUGUGCUACACAUCGUAUGUACCGAAUCGGCCCCGGCCCCGGGCCCCGGGGAAAGUAUUAUGUUACGCCGUUCGGAUCUGCACUU` the log2 enrichment was -0.396.
For `UUCCAGGCUCAAGCACGGACAUCAGUGAGGACUGGGAGAAAGACUUUGACUUGGACAUGACUGAAGAGGAGGUGCAGAUGGCACUUUCCA`, the log2 enrichment was -0.402.

Series 3
Target: Interferon regulatory factor 3, full length, phosphomimetic (IRF3, Homo sapiens, UniProt Q14653, residues 1-427, S386D/S396D/S398D/S402D/T404D/S405D)
Technique: protein-binding microarray
Form: double-stranded DNA, one strand shown
Sample: in vitro
Concentration: 2540 nM top
Setting: 60-bp whole probe
With: salmon DNA 0.4 mg/ml
Reference: random background probes
Direction: higher = stronger binding
All sequences stand within: GCCTAGCAC … GTCTTGATTCGCTTGACGCTGCTG
Residues (chain): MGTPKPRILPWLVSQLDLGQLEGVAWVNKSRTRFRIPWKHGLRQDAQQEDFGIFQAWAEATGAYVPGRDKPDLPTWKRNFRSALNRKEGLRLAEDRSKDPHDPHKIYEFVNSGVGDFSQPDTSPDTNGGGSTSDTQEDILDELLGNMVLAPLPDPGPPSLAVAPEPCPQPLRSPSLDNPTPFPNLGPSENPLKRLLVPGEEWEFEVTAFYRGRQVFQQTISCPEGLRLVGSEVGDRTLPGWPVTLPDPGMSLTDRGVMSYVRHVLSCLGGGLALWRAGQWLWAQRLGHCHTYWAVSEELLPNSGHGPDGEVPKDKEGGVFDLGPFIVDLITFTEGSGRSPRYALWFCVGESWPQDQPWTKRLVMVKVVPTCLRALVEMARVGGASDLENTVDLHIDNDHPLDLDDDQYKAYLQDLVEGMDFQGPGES
Under “fitted relative affinity”, `TTAGTTATCGGGTATCGGTTAGTGCTA` is recorded as 1.17 z-score.
Under “fitted relative affinity”, `TCTGTCCTGATAGCCCTGGCGTGCTAG` is recorded as 0.337 z-score.
For `TCAGAACTGGGGACTGGATTAGTGCTA`, “fitted relative affinity” read -0.436 z-score.
Under “fitted relative affinity”, `GACGGTATCGGTTTCGAGACGTGCTAG` is recorded as 6.83 z-score.
Under “fitted relative affinity”, `TCATTTTTCCCTCTGGAACTGTGCTAG` is recorded as 2.62 z-score.
For `GACGATTCCAGTTGCGAGACGTGCTAG`, “fitted relative affinity” read 1.13 z-score.
Under “fitted relative affinity”, `ACTGATTTCCACTTTCTTAAGTGCTAG` is recorded as 2.91 z-score.
For `TTTTTTTTTTTTTGGAATGTGTGCTAG`, “fitted relative affinity” read 1.51 z-score.
`TTGGGTATCGGGTATCGGTTAGTGCTA`: “fitted relative affinity” 1.21 z-score.
Under “fitted relative affinity”, `TTAGGTCTCTTTTTCCTTTAGTGCTAG` is recorded as 2.51 z-score.
`GACGGTTTCGGTTCCGGAACGTGCTAG` — result for “fitted relative affinity”: 10.8 z-score.
Under “fitted relative affinity”, `TTAGGACTGGACGCTGGGTTAGTGCTA` is recorded as -0.939 z-score.
Under “fitted relative affinity”, `GACGATTTCGGGTTTCGAAACGTGCTA` is recorded as 3.56 z-score.
Under “fitted relative affinity”, `CCCCTCTTCTGGATCTCAGAGTGCTAG` is recorded as 1.64 z-score.
Under “fitted relative affinity”, `CCAAGTTTATACCTTAGGTTGTGCTAG` is recorded as 0.111 z-score.
`TTAGATTTCGGGATTGGATTAGTGCTA`: “fitted relative affinity” 1.61 z-score.
`AGCAGTTTCTCAACCACTTTGTGCTAG`: “fitted relative affinity” 2.17 z-score.
Under “fitted relative affinity”, `TCATTTTTTTTTTTTTAACTGTGCTAG` is recorded as 1.25 z-score.
Under “fitted relative affinity”, `TTAGGACTTGGGACTGGGTTAGTGCTA` is recorded as -1.17 z-score.
`GACGGACTGGACACTAGGGACGTGCTA`: “fitted relative affinity” -0.511 z-score.
For `CTTTGACTCTTTCTGTCAGTGTGCTAG`, “fitted relative affinity” read 0.875 z-score.
`TCATTTGACTCTTTCTGACTGTGCTAG`: “fitted relative affinity” 1.26 z-score.
For `GACGGACTGGGACTGGAGACGTGCTAG`, “fitted relative affinity” read -0.736 z-score.
Under “fitted relative affinity”, `TTAGGTGTCGGTTTCGGTTAGTGCTAG` is recorded as 6.75 z-score.
`TTAGATTCCAGTTTCGGTTAGTGCTAG`: “fitted relative affinity” 6.28 z-score.

Series 4
Target: RNA binding protein fox-1 homolog 2, RRM domain, GST-SBP tag (RBFOX2, Homo sapiens, UniProt O43251-10, residues 100-194)
Technique: RNA Bind-n-Seq
Form: RNA
Sample: in vitro
Concentration: 365 nM
Setting: natural RNA segment, single round, ends assumed
Reference: no-protein control
Direction: higher = stronger binding
All sequences stand within: GGGAGUUCUACAGUCCGACGAUC … UGGAAUUCUCGGGUGCCAA
Target sequence (chain): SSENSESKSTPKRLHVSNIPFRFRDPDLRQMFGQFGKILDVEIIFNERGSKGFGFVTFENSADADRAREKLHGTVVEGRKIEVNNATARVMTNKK
`ACUGUGUCAUAGUGGACCCUGACUGCAGGAGUCAGGCCUCUCAGCCCAGGGCAGAUGCUGCCUUUAUCUUCUAUCAUUUGUAUGACGUGGCUGGAUGGAGUUUCUUUUGU` — result for “RBNS enrichment (R)”: 0.284.
`UACCAUACAACAAAUAACACCAGGAAACUCUGGAAUGAACAGUAUCACAUUCUAGGAAGCAAUGGCAGGUGACAUCACUAUUAUAAUAGGAACAAUGCAUUCUAAUGGUA`: “RBNS enrichment (R)” 0.486.
`UUUAAUUACUGCUGUAUAUUUGUUGAUUUUGGAGUUACAACUGUGGUGAUAGAAAAUUGAGUUGAUGGUCUGUACCAAGUCCCUUGUCUAUGUUCUUGUCUUUCAGAAUA` — result for “RBNS enrichment (R)”: 2.65.
Under “RBNS enrichment (R)”, `CAGCCCCCAGAAUGUUCUGGACAUGCACCACCAGCCGGUGGUCCCAAUGUCCACCCCUGCCUCCCCUUCACUGGGGACUGGGGUUUUCGCCCCAUGCUGCAUCGUGUUGU` is recorded as 0.498.
`AGGCUCGUGGAGAGGCUGAGGGAAUGUUACUAAGUUUCCCUCCGUUUGUCUCCAGUCUGGUGCCAGGCAGUAGAGUGGAAAAGGAGGCUAUUUUUUUAUUCUAUGUGCAC` — result for “RBNS enrichment (R)”: 1.28.
Under “RBNS enrichment (R)”, `UUAGCAAAGACAACUGCUCCUGCUCCACUAGAUAUGACUUCCUCUCCUGUGACAACAGCCAGUUUAGAAAAACUCCCUGUACCCCAGAUCAGUGGAACUGCAACAUCUAC` is recorded as 0.503.
`GCCUCCUCUCUGAUCAGAGCCGACACCAGACGUGAUUAGCAGGCGCAGCAAAUUCAAUUUGUUAAAUAAAUUGUAUUUUGCCCACGGCUGCUUCUGUUUGAUCCCCAGGG`: “RBNS enrichment (R)” 0.361.
`UGCCAUUAUGUGUGGUCUUCCCAUUAAAUGUGAACAUUUUAAUAUGUAUGCAUUCACCUUGCCUCUUGCACAAAUGUCAAAAAAAAGAUGGUAAUAUCUCAAAGAAAUGA`: “RBNS enrichment (R)” 0.421.
`UGUUUCUUGUCGUGAGGCACCUGCCAUGUCUGUUGCGUUUUCCUCGGCAGCGUGUAGGGCUUCAGCUUCCUGGGUUUUCACCCUUCCUGCAGGCACUGUGGGGUCCUGAG` — result for “RBNS enrichment (R)”: 0.29.
For `CACUUAAGGAAGGAUGGCUCUCUCUCAUCUGUCUCUUGUUCCUUAUUGUUGCAGAGCUAGCUCCACAGAGUCAGAAAGUUCUGACCCACAUUAGACCCGUGUGCGCUGCU`, “RBNS enrichment (R)” read 0.459.
`UGCUCGUUAUAUUGUGAUCCAGUACAUUUUAUGUUAAAUUGUUUAUCAGCCAUUUCUGUUGUGAACUGUAGAAGAUCUUAAAUUGGGAUUGGACUCACUCUCUGUUCCAC`: “RBNS enrichment (R)” 0.563.
`AUUCUUGUAUUUAUGUGAGACUUGCCCAUCUACUGUCUUGGCUGUGUCUUGCCUUUUAAUCAUGAACAGUUACAUGAUUUAUAAUUUCACUGAUUGAGAUUACUUUGUAA`: “RBNS enrichment (R)” 0.447.
